Published values from different studies.
Protocols differ between the studies behind these lines.

SMILES	organism	assay	system	setting	quantity	result
CCN1CCN(C(=O)N[C@@H](C(=O)N[C@@H]2C(=O)N3[C@@H]2SC(C)(C)[C@@H]3C(=O)O)c2ccccc2)C(=O)C1=O	Escherichia coli	broth microdilution	ATCC 25922 wild type	added: clavulanic acid 6 µg/mL	MIC	12.5 µg/mL
OC(Cn1cncn1)(Cn1cncn1)c1ccc(F)cc1F	Nakaseomyces glabratus	–	CG2	–	MIC	8 µg/mL
C[C@H](NC(=O)CO/N=c1\cc2n(-c3ccc(Cl)cc3)c3ccccc3nc-2cc1Nc1ccc(Cl)cc1)C(=O)O	Neisseria meningitidis	bacterial growth	ATCC 13077	24 h	MIC	7.5 µM
O=c1[nH]c(NCc2ccc(Cl)c(Cl)c2)nc2ncn(CCCCCN3CCOCC3)c12	Clostridioides difficile	agar dilution anaerobic	3584	48 h	MIC	2 µg/mL
OC(Cn1cncn1)(Cn1cncn1)c1ccc(F)cc1F	Nakaseomyces glabratus	–	CG3, azole-susceptible, RPMI 1640	24 h, 35 °C	MIC	25 µM
CC(=O)NC[C@H]1CN(c2ccc(N3CCOCC3)c(F)c2)C(=O)O1	Levilactobacillus brevis	–	ATCC 14869	–	MIC	5.93 µM
CCCCCCCCCC(=O)N[C@@H](Cc1c[nH]c2ccccc12)C(=O)N[C@H](CC(N)=O)C(=O)N[C@@H](CC(=O)O)C(=O)N[C@@H]1C(=O)NCC(=O)N[C@@H](CCCN)C(=O)N[C@@H](CC(=O)O)C(=O)N[C@H](C)C(=O)N[C@@H](CC(=O)O)C(=O)NCC(=O)N[C@H](CO)C(=O)N[C@@H]([C@H](C)CC(=O)O)C(=O)N[C@@H](CC(=O)c2ccccc2N)C(=O)O[C@@H]1C	Staphylococcus aureus	–	SH1000	added: phosphatidylcholine, molar ratio 1	MIC	1 µg/mL
CC1(C)S[C@@H]2[C@H](NC(=O)[C@H](N)c3ccccc3)C(=O)N2[C@H]1C(=O)O	Salmonella enterica serovar Enteritidis	broth microdilution	clinical isolate RKI-No 205/14	–	MIC	> 16 µg/mL
COc1cc(/C=C/C(=O)N2CCC=CC2=O)cc(OC)c1OC	Toxoplasma gondii	parasite growth	HFF, bradyzoite, glutamine-induced	–	EC90	6.89 µM
CCOCCn1cnc2nc(NCc3ccc(Cl)c(Cl)c3)[nH]c(=O)c21	Clostridioides difficile	agar dilution anaerobic	3581	48 h	MIC	2 µg/mL
Cc1c(CN(C)C(=O)/C=C/c2cnc3c(c2)CCC(=O)N3)oc2ccccc12	Escherichia coli	broth microdilution	AR-0151	–	MIC	> 32 µg/mL
O=c1[nH]c(NCc2ccc(Cl)c(Cl)c2)nc2ncn(CCN3CCOCC3)c12	Clostridioides difficile	agar dilution anaerobic	3584	48 h	MIC	1 µg/mL
Clc1ccc(Nc2cc3nc4ccccc4n(-c4ccc(Cl)cc4)c-3c/c2=N\OCc2ccccc2)cc1	Neisseria meningitidis	bacterial growth	ATCC 13077	24 h	MIC	> 30 µM
N=C(N)c1cccc(OCc2ccc(COc3cccc(C(=N)N)c3)cc2)c1	Escherichia coli	–	mcr-1 polymyxin-resistant	20 h, compound alone	MIC	> 200 µg/mL
CO[C@H]1/C=C/O[C@@]2(C)Oc3c(C)c(O)c4c(c3C2=O)C2=NC3(CCN(CC(C)C)CC3)NC2=C(NC(=O)/C(C)=C\C=C\[C@H](C)[C@H](O)[C@@H](C)[C@@H](O)[C@@H](C)[C@H](OC(C)=O)[C@@H]1C)C4=O	Mycobacteroides abscessus	broth microdilution	ATCC 19977	–	MIC	2 µM
CCOC(=O)CNC(=O)CO/N=c1\cc2n(-c3ccc(Cl)cc3)c3ccccc3nc-2cc1Nc1ccc(Cl)cc1	Neisseria meningitidis	bacterial growth	ATCC 13077	24 h	MIC	0.23 µM
CC(C)C1NC(=O)C(C(=O)NC(C(=O)NC2C(=O)N3C2SC(C)(C)C3C(=O)O)c2ccccc2)=C1O (stereo not drawn)	Escherichia coli	broth microdilution	ATCC 25922 wild type	added: clavulanic acid 6 µg/mL	MIC	12.5 µg/mL
CCc1cc(Nc2cc(=O)n(CCCCO)c(=O)[nH]2)ccc1C	Clostridioides difficile	agar dilution anaerobic	3584	48 h	MIC	4 µg/mL
N=C(N)c1ccc(OCc2ccc(Br)cc2COc2ccc(C(=N)N)cc2)cc1	Escherichia coli	–	mcr-1 polymyxin-resistant	20 h, compound alone	MIC	100 µg/mL
CC[C@H]1CN2CCc3cc(OC)c(OC)cc3[C@@H]2C[C@@H]1C[C@H]1NCCc2cc(OC)c(OC)cc21	Toxoplasma gondii	parasite growth	HFF, bradyzoite, alkaline-induced	–	EC90	2.5 µM
Cc1ncc([N+](=O)[O-])n1CCO	Clostridioides difficile	agar dilution anaerobic	ATCC 4381	48 h	MIC	0.5 µg/mL

For quick reference, copied from above:
SMILES	organism	assay	system	setting	quantity	result
CC[C@H]1CN2CCc3cc(OC)c(OC)cc3[C@@H]2C[C@@H]1C[C@H]1NCCc2cc(OC)c(OC)cc21	Toxoplasma gondii	parasite growth	HFF, bradyzoite, alkaline-induced	–	EC90	2.5 µM
Clc1ccc(Nc2cc3nc4ccccc4n(-c4ccc(Cl)cc4)c-3c/c2=N\OCc2ccccc2)cc1	Neisseria meningitidis	bacterial growth	ATCC 13077	24 h	MIC	> 30 µM
